Measurements collected from several papers.
Numbered parts are unrelated; each lists some results of a single study.

Series 1
Target: RING finger protein unkempt homolog, zinc fingers 1-6, GST-SBP tag (UNK, Homo sapiens, UniProt Q9C0B0, residues 30-357)
Technique: RNA Bind-n-Seq
Form: RNA
Matrix: in vitro
Tested at: not given
Setting: RNA with constant flanks, human and mouse sites, ends assumed
Reference: input RNA pool
Direction: higher = stronger binding
All sequences stand within: GGGAGUUCUACAGUCCGACGAUC … CAACAGAGGAUUGAGCAUCA
Target sequence (chain): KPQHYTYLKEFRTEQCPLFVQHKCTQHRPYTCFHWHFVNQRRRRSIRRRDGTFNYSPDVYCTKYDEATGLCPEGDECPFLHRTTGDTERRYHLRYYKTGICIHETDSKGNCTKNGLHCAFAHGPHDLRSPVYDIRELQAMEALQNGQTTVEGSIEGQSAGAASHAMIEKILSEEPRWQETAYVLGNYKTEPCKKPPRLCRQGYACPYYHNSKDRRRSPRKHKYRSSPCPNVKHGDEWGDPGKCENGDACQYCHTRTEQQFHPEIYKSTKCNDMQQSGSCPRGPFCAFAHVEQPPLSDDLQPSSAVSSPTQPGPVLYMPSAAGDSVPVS
| Oligonucleotide | bound/input enrichment [ratio] |
| --- | --- |
| GUAUUCGACUUAAAAGAAAGAAAUCAGUGGUUGCGAAGGAAUAUCAAAAACCUACUUCAACAGCUUAUUAGAGCUACAUAUGGCGAUACUAUUAAUAGAAAAAUAGUUGACCAUGUUGAC | 0.339 |
| UGGUUUAAAGCCCUGAGGAUAGUAGUCACUUUAUUGGCCACUUUUUCAUUUAUAAUCACUUUAGUAGUUAAAAGUAGUUUUCCAGAAAAAGGACAUAAGAGACCUGGUCAAGUAUAAAAA | 0.655 |
| AACCCCAACGCCUGCAGCUAUGGCGUGGCCGUGGGCGUGCUCGCCUUCCUCACCUGCCUGCUGUACCUGGCCCUGGACGUGUACUUCCCGCAGAUCAGCAGCGUCAAGGACCGCAAGAAA | 0.0987 |
| AAUUCAUCUAAAGAUGUCUCUGGUGAUUUUUAUAUGUUCCGCUAUAUAAUUGAUGCUUUAUAGUUUUAUCAUAAUCCAACAACUUCAGUUAUAUUUAAUUAUUGUUAAGGAGUUUAAGAC | 1.04 |
| UUUAAUCUUAAACUCAAUGAGUAUAUGUUGAGUAACCUUUAAAAAUGAAAGAUUUAAAAAGAUUUAUAUCCACUGAGAAUACAGGCCUUAUAUUAAGGAUGAUAUUAAAAUUAUAGGUUU | 5.61 |
| GUGUCUAAAUGUUCUGAAGAAAUAAAGAACUAUAUUGAAGAACGUUCUGGAGAGGAUCCUCUAGUAAAGGGAAUUCCAGAAGACAAGAACCCCUUUAAAGAAAAAGGCAGCUGUGUUAUU | 0.305 |
| GACUUGCUUCUACAGGCUUGUCCUUUGGGUACUUUAUUGGAUGCUAACUUGCAGAAUUCACUGAAUAGCAUUAAUUCCGUAUCUGUGACUCAGCCGCAAAAACAGCCAGCCUGGAAAGUU | 0.191 |
| UGAGAACCCAGCCACCACCUCUCUAACCCUGGCUUGCCUUCUUUUUCCUUCCCGUUCUUUCUUUUUGUGGCAGGGUCUCACUAUGUAGCCCUGGCUGGCCUAGAAUUCUCUUUGUAGACG | 0.626 |

Series 2
Target: TAR DNA-binding protein 43, full length, His tag (TARDBP, Homo sapiens, UniProt Q13148, residues 1-414)
Technique: RNA Bind-n-Seq
Form: RNA
Matrix: in vitro
Tested at: 20 nM
Setting: 6-mer, flanks averaged, single round
Together with: 150 mM KCl
Reference: input library
Direction: higher = stronger binding
| Oligonucleotide | 6-mer enrichment (R) |
| --- | --- |
| UGCGAU | 0.764 |
| AUGAGU | 1.03 |
| CGAGAA | 0.869 |
| CUCGUU | 0.541 |
| GUUGCU | 0.771 |
| ACCCCU | 0.649 |
| ACCUUG | 0.702 |
| AGGCAG | 1.61 |

Series 3
Target: Runt-related transcription factor 3, Runt domain (RUNX3, Homo sapiens, UniProt Q13761, residues 53-186)
UniProt Q13761, sequence (53-186, looked up): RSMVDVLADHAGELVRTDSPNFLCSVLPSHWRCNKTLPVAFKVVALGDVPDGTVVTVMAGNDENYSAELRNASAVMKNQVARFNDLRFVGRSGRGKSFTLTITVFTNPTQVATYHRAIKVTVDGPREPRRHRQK
Technique: protein-binding microarray
Form: hairpin DNA
Matrix: in vitro
Tested at: not given
Setting: whole hairpin DNA, median over replicate spots
Reference: not given
Direction: higher = stronger binding
| Oligonucleotide | median fluorescence [a.u.] |
| --- | --- |
| CTCAGTTCTGTGGCGTGGACTCCTGTCCACGCCACAGAACTGAGACACTC (5mC at 30) | 3870 |
| GAGGCCTGTTGCGGTTCGCCTCCTGGCGAACCGCAACAGGCCTCACACTC | 7130 |
| GAGGCCCAACTGCAACAGCCTCCTGGCTGTTGCAGTTGGGCCTCACACTC | 4690 |
| GAGGCCTGTTGCCGTTGGCCTCCTGGCCAACGGCAACAGGCCTCACACTC | 4790 |
| GAGGCCCAACCGCAACGGCCTCCTGGCCGTTGCGGTTGGGCCTCACACTC (5mC at 16 28) | 10400 |
| GAGGCCCAACCGCAGCAGCCTCCTGGCTGCTGCGGTTGGGCCTCACACTC | 7300 |
| GAGGCCCGTCGCGGTTGGCCTCCTGGCCAACCGCGACGGGCCTCACACTC (5mC at 37) | 6410 |
| GAGGCCTGCTGCGGTTGGCCTCCTGGCCAACCGCAGCAGGCCTCACACTC | 7650 |

Mixed results
| Structure (SMILES) | test system | setting | measurement | value |
| --- | --- | --- | --- | --- |
| O=C(c1ccc(Nc2nc3ccccc3n3nnnc23)cc1)N1CCc2ccccc2C1 | human, microsomes or S9 | 2 µM, 0.5 h | remaining compound | 3.43% |

Excerpt of the above (series 3):
| Oligonucleotide | median fluorescence [a.u.] |
| --- | --- |
| CTCAGTTCTGTGGCGTGGACTCCTGTCCACGCCACAGAACTGAGACACTC (5mC at 30) | 3870 |
| GAGGCCTGTTGCGGTTCGCCTCCTGGCGAACCGCAACAGGCCTCACACTC | 7130 |
| GAGGCCCAACTGCAACAGCCTCCTGGCTGTTGCAGTTGGGCCTCACACTC | 4690 |
| GAGGCCTGTTGCCGTTGGCCTCCTGGCCAACGGCAACAGGCCTCACACTC | 4790 |
